Measurements pooled from the literature.
Parts stem from different laboratories: compare values within a part only.
UniProt Q16644, sequence (whole entry, looked up): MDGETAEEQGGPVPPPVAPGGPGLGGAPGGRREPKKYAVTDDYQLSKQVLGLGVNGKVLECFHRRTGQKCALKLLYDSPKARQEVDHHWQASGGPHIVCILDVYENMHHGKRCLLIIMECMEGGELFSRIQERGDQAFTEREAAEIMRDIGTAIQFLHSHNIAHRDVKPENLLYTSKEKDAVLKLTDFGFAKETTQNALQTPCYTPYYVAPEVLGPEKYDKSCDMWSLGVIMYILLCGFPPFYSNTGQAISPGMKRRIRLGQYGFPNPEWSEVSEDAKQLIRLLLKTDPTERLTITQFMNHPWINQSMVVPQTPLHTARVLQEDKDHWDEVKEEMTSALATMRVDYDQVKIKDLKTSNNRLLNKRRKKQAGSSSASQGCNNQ
UniProt P30530, sequence (whole entry, looked up): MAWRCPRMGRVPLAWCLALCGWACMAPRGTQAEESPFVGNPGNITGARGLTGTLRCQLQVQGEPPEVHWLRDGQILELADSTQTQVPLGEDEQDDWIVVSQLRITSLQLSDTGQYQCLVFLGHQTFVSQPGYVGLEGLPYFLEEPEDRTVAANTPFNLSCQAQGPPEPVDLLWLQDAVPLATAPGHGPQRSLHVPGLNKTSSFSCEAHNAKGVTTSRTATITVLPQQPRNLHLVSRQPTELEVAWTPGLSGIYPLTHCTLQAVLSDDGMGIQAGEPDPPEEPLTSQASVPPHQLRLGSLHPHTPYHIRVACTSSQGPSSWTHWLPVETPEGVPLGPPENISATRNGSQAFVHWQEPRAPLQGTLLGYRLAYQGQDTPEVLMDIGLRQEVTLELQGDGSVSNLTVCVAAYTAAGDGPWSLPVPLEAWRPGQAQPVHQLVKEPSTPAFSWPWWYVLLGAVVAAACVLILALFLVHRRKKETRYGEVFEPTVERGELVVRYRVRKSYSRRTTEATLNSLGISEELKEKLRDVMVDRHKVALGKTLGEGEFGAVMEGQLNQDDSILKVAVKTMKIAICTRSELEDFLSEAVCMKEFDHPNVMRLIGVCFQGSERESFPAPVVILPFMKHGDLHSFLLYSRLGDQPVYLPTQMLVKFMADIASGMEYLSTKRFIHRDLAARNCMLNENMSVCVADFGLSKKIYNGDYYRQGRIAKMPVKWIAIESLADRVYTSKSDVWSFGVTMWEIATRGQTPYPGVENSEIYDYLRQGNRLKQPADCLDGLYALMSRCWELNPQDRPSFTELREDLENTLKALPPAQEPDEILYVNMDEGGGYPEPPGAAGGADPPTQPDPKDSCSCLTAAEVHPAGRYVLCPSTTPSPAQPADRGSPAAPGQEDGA
UniProt Q9H093, sequence (whole entry, looked up): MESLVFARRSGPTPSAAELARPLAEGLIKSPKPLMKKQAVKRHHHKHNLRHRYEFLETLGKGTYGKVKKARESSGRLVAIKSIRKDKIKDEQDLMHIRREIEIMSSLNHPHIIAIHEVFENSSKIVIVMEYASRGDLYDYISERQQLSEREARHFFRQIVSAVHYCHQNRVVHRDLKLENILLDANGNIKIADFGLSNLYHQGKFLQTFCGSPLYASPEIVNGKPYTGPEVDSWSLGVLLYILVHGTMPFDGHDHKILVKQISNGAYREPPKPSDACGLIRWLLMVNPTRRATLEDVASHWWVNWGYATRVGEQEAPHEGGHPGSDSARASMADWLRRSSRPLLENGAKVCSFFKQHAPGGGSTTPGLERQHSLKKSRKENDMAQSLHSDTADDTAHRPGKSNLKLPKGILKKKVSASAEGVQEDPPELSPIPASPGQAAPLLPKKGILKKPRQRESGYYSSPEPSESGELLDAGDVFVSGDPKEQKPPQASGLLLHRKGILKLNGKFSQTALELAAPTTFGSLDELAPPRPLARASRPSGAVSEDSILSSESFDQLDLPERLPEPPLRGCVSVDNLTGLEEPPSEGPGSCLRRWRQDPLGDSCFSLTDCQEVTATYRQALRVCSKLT
UniProt Q8IY84, sequence (whole entry, looked up): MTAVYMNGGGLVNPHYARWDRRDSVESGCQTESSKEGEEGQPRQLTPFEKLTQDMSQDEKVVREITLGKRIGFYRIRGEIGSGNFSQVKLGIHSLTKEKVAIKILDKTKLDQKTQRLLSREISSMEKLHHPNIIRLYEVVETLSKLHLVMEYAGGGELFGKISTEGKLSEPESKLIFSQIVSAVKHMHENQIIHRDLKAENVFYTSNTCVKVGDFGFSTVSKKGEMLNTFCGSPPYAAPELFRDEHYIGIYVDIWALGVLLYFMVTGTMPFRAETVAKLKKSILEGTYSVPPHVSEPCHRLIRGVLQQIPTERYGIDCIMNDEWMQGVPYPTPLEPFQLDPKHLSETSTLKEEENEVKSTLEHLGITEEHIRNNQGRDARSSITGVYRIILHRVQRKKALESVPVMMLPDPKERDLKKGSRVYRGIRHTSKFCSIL
UniProt O75582, sequence (whole entry, looked up): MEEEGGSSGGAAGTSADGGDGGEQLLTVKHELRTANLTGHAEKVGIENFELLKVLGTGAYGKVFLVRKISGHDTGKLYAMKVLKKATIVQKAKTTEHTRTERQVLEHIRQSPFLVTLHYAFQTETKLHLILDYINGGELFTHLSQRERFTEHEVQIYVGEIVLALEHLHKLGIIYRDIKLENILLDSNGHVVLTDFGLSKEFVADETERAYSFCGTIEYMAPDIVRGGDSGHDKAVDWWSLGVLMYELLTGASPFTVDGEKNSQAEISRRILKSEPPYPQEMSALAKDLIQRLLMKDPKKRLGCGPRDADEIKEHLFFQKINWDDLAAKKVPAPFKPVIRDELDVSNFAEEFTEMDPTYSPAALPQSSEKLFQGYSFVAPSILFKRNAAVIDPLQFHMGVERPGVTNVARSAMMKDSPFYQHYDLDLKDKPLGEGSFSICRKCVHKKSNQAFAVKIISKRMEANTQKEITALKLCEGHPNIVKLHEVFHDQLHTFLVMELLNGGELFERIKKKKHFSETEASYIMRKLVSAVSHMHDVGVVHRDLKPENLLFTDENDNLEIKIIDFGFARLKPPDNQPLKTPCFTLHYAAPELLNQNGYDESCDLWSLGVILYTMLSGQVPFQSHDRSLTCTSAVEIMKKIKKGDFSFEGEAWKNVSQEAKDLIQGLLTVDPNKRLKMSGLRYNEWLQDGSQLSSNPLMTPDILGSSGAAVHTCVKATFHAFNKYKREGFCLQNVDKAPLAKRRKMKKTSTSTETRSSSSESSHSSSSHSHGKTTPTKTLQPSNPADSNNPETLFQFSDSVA
UniProt Q13873, sequence (whole entry, looked up): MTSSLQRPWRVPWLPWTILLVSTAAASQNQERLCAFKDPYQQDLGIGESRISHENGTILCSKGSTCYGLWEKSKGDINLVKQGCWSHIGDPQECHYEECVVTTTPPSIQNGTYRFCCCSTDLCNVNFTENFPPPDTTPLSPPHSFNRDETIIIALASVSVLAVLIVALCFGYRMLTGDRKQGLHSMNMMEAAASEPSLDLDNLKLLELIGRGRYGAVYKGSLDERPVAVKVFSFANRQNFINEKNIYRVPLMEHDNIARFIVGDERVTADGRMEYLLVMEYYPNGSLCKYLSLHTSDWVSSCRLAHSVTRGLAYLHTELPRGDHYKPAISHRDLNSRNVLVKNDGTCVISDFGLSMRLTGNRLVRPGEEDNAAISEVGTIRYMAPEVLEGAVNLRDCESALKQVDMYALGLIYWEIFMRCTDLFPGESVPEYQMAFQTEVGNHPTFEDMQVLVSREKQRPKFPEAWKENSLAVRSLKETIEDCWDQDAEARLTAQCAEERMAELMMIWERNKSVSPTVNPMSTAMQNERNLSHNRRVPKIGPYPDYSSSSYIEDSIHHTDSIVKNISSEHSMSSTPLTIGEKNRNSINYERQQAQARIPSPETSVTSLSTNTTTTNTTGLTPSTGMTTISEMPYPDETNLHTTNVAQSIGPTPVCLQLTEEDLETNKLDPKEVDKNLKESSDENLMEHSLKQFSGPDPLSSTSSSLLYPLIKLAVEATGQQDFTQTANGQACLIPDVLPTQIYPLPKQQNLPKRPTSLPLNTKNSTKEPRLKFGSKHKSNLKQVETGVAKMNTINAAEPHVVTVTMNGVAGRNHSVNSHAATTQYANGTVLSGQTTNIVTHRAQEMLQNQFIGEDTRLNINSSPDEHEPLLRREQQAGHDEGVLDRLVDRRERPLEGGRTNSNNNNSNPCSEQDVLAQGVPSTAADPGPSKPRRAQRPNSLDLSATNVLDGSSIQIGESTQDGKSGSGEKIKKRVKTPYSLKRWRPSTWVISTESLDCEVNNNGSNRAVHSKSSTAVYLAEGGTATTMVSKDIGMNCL
UniProt Q96PF2, sequence (whole entry, looked up): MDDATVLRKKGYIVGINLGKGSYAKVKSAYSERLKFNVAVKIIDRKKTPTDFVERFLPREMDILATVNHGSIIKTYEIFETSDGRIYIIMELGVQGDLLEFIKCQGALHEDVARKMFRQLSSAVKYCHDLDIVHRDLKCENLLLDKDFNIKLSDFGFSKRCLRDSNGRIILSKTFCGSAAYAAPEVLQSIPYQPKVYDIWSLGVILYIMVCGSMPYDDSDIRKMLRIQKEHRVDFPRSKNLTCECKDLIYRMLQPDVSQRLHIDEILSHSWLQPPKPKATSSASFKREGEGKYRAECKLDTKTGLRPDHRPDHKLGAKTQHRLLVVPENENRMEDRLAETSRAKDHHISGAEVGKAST
UniProt O75716, sequence (whole entry, looked up): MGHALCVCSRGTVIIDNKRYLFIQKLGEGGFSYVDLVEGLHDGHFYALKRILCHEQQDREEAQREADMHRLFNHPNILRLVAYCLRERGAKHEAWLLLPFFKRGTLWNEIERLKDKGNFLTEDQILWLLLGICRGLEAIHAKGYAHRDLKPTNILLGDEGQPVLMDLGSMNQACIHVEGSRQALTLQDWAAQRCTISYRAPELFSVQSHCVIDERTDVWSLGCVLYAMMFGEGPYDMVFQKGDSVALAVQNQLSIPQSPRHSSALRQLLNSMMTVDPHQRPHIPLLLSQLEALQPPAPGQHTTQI

Set 1 — read-out: enzyme activity; mode: inhibitor; tested at: 0.5 µM; baseline: control
Structure (SMILES): C[S+]([O-])c1ccc(-c2nc(-c3ccncc3)c(-c3ccc(F)cc3)[nH]2)cc1 (stereo not shown)
target	remaining activity [%]
Dual specificity tyrosine-phosphorylation-regulated kinase 3 (DYRK3, Homo sapiens, UniProt O43781)	99
Ephrin type-B receptor 1 (EPHB1, Homo sapiens, UniProt P54762)	93
Tyrosine-protein kinase Blk (BLK, Homo sapiens, UniProt P51451)	102
Cyclin-dependent kinase 6, with cyclin D3 (CDK6, Homo sapiens, UniProt Q00534)	94.6
MAP kinase-activated protein kinase 3 (MAPKAPK3, Homo sapiens, UniProt Q16644)	101
Cyclin-dependent kinase 1, with cyclin B (CDK1, Homo sapiens, UniProt P06493)	99.1
Phosphorylase b kinase gamma catalytic chain, skeletal muscle/heart isoform (PHKG1, Homo sapiens, UniProt Q16816)	94.1
Homeodomain-interacting protein kinase 2 (HIPK2, Homo sapiens, UniProt Q9H2X6)	102
Tyrosine-protein kinase receptor UFO (AXL, Homo sapiens, UniProt P30530)	100
Ribosomal protein S6 kinase alpha-5 (RPS6KA5, Homo sapiens, UniProt O75582)	104
Homeodomain-interacting protein kinase 4 (HIPK4, Homo sapiens, UniProt Q8NE63)	93.5
Serine/threonine-protein kinase WNK3 (WNK3, Homo sapiens, UniProt Q9BYP7)	99
Testis-specific serine/threonine-protein kinase 2 (TSSK2, Homo sapiens, UniProt Q96PF2)	95.7
Serine/threonine-protein kinase 16 (STK16, Homo sapiens, UniProt O75716)	111
cAMP-dependent protein kinase catalytic subunit gamma (PRKACG, Homo sapiens, UniProt P22612)	107

Set 2 — read-out: cell-free assay; technique: competition with immobilised ligand; tested at: 1 µM
Structure (SMILES): CCCOc1ccc([C@H]2[C@H](C(=O)O)[C@@H](c3ccc4c(c3)OCO4)CN2CC(=O)Nc2c(CC)cccc2CC)cc1
target	remaining binding [%]
Homeodomain-interacting protein kinase 1 (HIPK1, Homo sapiens, UniProt Q86Z02)	75
STE20-like serine/threonine-protein kinase (SLK, Homo sapiens, UniProt Q9H2G2)	100
NUAK family SNF1-like kinase 2 (NUAK2, Homo sapiens, UniProt Q9H093)	57
Phosphatidylinositol 3-kinase C2 domain-containing subunit gamma (PIK3C2G, Homo sapiens, UniProt O75747)	75
Serine/threonine-protein kinase TAO1 (TAOK1, Homo sapiens, UniProt Q7L7X3)	84
Phosphatidylinositol 4,5-bisphosphate 3-kinase catalytic subunit alpha isoform (PIK3CA, Homo sapiens, UniProt P42336, M1043I)	91
Serine/threonine-protein kinase 32B (STK32B, Homo sapiens, UniProt Q9NY57)	100
Serine/threonine-protein kinase MARK2 (MARK2, Homo sapiens, UniProt Q7KZI7)	88
Protein-tyrosine kinase 2-beta (PTK2B, Homo sapiens, UniProt Q14289)	98
Proto-oncogene tyrosine-protein kinase receptor Ret (RET, Homo sapiens, UniProt P07949, V804M)	100
Serine/threonine-protein kinase NIM1 (NIM1K, Homo sapiens, UniProt Q8IY84)	78
Serine/threonine-protein kinase pim-2 (PIM2, Homo sapiens, UniProt Q9P1W9)	91
Bone morphogenetic protein receptor type-2 (BMPR2, Homo sapiens, UniProt Q13873)	53
Myosin light chain kinase 2, skeletal/cardiac muscle (MYLK2, Homo sapiens, UniProt Q9H1R3)	91

Mixed results
SMILES	assay	test system	conditions	how to read	quantity	value
CC(C)n1cnc(-c2ccc(F)cc2)c1-c1ncc(C(=O)Nc2ccc(N3CCN(C)CC3)cc2)[nH]1		idiopathic pulmonary fibrosis patients	oral, 30 mg twice daily, week 0 to 12, trial		acute exacerbation incidence	0%
C[C@@H]1OCC2(CCN(c3cnc(Sc4ccnc(N)c4Cl)c(N)n3)CC2)[C@@H]1N	immunoblot, refers to: phospho-ERK	Ba/F3 NRAS G12C, Mus musculus	0.1 µM	baseline: DMSO	ERK phosphorylation	95%

For quick reference, copied from above (set 1):
target	remaining activity [%]
Tyrosine-protein kinase Blk (BLK, Homo sapiens, UniProt P51451)	102
Cyclin-dependent kinase 6, with cyclin D3 (CDK6, Homo sapiens, UniProt Q00534)	94.6
MAP kinase-activated protein kinase 3 (MAPKAPK3, Homo sapiens, UniProt Q16644)	101
Cyclin-dependent kinase 1, with cyclin B (CDK1, Homo sapiens, UniProt P06493)	99.1
Phosphorylase b kinase gamma catalytic chain, skeletal muscle/heart isoform (PHKG1, Homo sapiens, UniProt Q16816)	94.1
